Published values gathered from unrelated publications.
Numbered parts are unrelated; each lists some results of a single study. Changes are numbered by the printed parent chain.

Set 1
Target: CEP164, C-terminal peptide (human)
Technique: DHFR complementation, deep sequencing
Medium: yeast
Setting: single substitutions, model-inferred values
Relative to: wild type
Reading: higher = weaker binding
Quantity: binding free energy change
Starting sequence: PDZK1, PDZ domain 2 (human); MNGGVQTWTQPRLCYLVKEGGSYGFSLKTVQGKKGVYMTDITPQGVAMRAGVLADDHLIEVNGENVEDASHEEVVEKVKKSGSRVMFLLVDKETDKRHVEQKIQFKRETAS; partner HNRVKVYRF
G3E: -0.201 kcal/mol
H71R: 1.9 kcal/mol
S70W: -0.325 kcal/mol
K96F: 0.0367 kcal/mol
K34F: 0.326 kcal/mol
G20V: 0.581 kcal/mol
L53A: 0.315 kcal/mol
D91T: -0.204 kcal/mol

Set 2
Partner: ARF12 500-593 (Arabidopsis thaliana, UniProt Q9XID4)
Technique: two-hybrid
Relative to: out of 4 tests
Reading: higher = firmer interaction
Quantity: positive tests
B1: IAA33 (Arabidopsis thaliana, UniProt Q9FKM7); chain MNSFEPQSQDSLQRRFHQDNSTTQQPRDTTTPFIPKPASKNHNNSNSSSGAAGRSFQGFGLNVEDDLVSSVVPPVTVVLEGRSICQRISLDKHGSYQSLASALRQMFVDGADSTDDLDLSNAIPGHLIAYEDMENDLLLAGDLTWKDFVRVAKRIRILPVKGNTRQVKRNE
B2: ARF4 660-788 (Arabidopsis thaliana, UniProt Q9ZTX9); chain QSSSKRICTKVHKQGSQVGRAIDLSRLNGYDDLLMELERLFNMEGLLRDPEKGWRILYTDSENDMMVVGDDPWHDFCNVVWKIHLYTKEEVENANDDNKSCLEQAALMMEASKSSSVSQPDSSPTITRV
B3: IAA31 (Arabidopsis thaliana, UniProt Q8H174); chain MEVSNSCSSFSSSSVDSTKPSPSESSVNLSLSLTFPSTSPQREARQDWPPIKSRLRDTLKGRRLLRRGDDTSLFVKVYMEGVPIGRKLDLCVFSGYESLLENLSHMFDTSIICGNRDRKHHVLTYEDKDGDWMMVGDIPWDMFLETVRRLKITRPERY
B4: ARF7 1030-1164 (Arabidopsis thaliana, UniProt P93022); chain PAQTQRMRTYTKVQKRGSVGRSIDVNRYRGYDELRHDLARMFGIEGQLEDPQTSDWKLVYVDHENDILLVGDDPWEEFVNCVQSIKILSSAEVQQMSLDGNFAGVPVTNQACSGGDSGNAWRGHYDDNSATSFNR
B5: IAA18 (Arabidopsis thaliana, UniProt O24408); chain MEGYSRNGEISPKLLDLMIPQERRNWFHDEKNSVFKTEEKKLELKLGPPGEEDDDESMIRHMKKEPKDKSILSLAGKYFSPSSTKTTSHKRTAPGPVVGWPPVRSFRKNLASGSSSKLGNDSTTSNGVTLKNQKCDAAAKTTEPKRQGGMFVKINMYGVPIGRKVDLSAHNSYEQLSFTVDKLFRGLLAAQRDFPSSIEDEKPITGLLDGNGEYTLTYEDNEGDKMLVGDVPWQMFVSSVKRLRVIKTSEISSALTYGNGKQEKMRR
B6: IAA17 (Arabidopsis thaliana, UniProt P93830); chain MMGSVELNLRETELCLGLPGGDTVAPVTGNKRGFSETVDLKLNLNNEPANKEGSTTHDVVTFDSKEKSACPKDPAKPPAKAQVVGWPPVRSYRKNVMVSCQKSSGGPEAAAFVKVSMDGAPYLRKIDLRMYKSYDELSNALSNMFSSFTMGKHGGEEGMIDFMNERKLMDLVNSWDYVPSYEDKDGDWMLVGDVPWPMFVDTCKRLRLMKGSDAIGLAPRAMEKCKSRA
Residues (chain): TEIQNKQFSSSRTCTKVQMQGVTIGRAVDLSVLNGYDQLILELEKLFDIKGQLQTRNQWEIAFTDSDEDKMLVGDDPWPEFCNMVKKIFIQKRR
B1 (IAA33): 1
B2 (ARF4 660-788): 0
B3 (IAA31): 3
B4 (ARF7 1030-1164): 0
B5 (IAA18): 0
B6 (IAA17): 1

Set 3
Target: Histone acetyltransferase KAT6A, winged helix 1, GST fusion (KAT6A, Homo sapiens, UniProt Q92794, residues 1-85)
Technique: protein binding microarray
Form: double-stranded DNA, one strand shown
Medium: in vitro
Concentration: not given
Setting: 8-mer, flanks averaged, mean of 2 arrays, mostly near background
Relative to: not given
Reading: higher = stronger binding
Quantity: E-score
Construct (chain): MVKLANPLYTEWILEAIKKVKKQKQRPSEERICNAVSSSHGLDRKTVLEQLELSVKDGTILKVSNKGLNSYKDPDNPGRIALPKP
CGTATCAC: 0.181
TTAGTGAA: -0.221
ATCTGGGG: -0.284
TAGTCATA: -0.0966
ACTAATAG: -0.14
ATTGGCTC: -0.262
ACGACTAA: -0.0539
AATCCCCA: -0.252

Further values, each from its own experiment
Starting sequence: viral docking peptide; KKVKRRLFETREL; partner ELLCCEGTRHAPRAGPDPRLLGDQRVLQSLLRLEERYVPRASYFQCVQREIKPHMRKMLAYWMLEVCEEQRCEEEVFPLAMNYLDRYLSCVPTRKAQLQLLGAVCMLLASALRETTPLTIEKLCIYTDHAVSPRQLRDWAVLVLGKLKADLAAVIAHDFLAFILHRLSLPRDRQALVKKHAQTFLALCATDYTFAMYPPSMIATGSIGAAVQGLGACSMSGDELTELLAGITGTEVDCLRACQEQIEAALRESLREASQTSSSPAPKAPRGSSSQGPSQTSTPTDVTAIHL
R5A  normalised enrichment score (CCND3, cyclin fold, Cln2 fusion (human); yeast growth competition, sequencing; yeast; weak parent motif; relative to: not given, higher = stronger binding): 0.144

Repeated from above (set 1):
K34F: 0.326 kcal/mol
G20V: 0.581 kcal/mol
